Measurements collected from several papers.
Parts stem from different laboratories: compare values within a part only. Substitutions count along the parent as printed.
Chain of UniProt P07947 (whole entry, looked up): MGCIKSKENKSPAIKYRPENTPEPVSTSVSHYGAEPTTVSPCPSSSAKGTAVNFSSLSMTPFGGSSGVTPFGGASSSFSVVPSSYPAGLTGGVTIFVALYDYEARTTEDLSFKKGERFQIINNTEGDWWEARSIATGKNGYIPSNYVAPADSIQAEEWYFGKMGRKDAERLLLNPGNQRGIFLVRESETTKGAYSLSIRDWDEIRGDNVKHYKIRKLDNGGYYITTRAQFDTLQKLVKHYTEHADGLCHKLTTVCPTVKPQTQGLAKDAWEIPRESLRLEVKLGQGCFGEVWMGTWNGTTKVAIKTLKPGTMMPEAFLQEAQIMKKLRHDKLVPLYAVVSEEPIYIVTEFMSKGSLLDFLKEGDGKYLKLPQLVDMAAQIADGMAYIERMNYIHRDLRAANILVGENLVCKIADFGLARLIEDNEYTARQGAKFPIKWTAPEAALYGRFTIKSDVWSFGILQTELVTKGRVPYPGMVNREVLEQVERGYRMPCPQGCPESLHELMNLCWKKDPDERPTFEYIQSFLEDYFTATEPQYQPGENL

Sample 1
Target: Prothrombin, mature alpha-thrombin (F2, Homo sapiens, UniProt P00734)
Method: aptamer microarray, sandwich
Form: DNA with 2'F-ANA
Matrix: in vitro
Concentration: 200 nM
Notes: whole 15-mer aptamer, many near background
Together with: Cy3 exosite-II aptamer, 400 nM
Direction: higher = stronger binding
Oligonucleotide: GGTTGGTGTGGTTGG
Modification	mean fluorescence intensity
2'F-ANA at 5 7 8 9 10 12 13	49.6 a.u.
2'F-ANA at 1 2 5 6 11 13	99.8 a.u.
2'F-ANA at 2 4 6 7 11 13 15	165 a.u.
2'F-ANA at 1 2 3 6 7 9 10 11 12 14 15	58.6 a.u.
2'F-ANA at 1 3 4 5 6 7 9 11 12	118 a.u.
2'F-ANA at 1 2 5 6 7 8 9 10 13 15	76.5 a.u.
2'F-ANA at 1 2 4 5 8 9 10 13 14	62.6 a.u.
2'F-ANA at 1 3 4 5 9 10 11 14	44.7 a.u.

Sample 2
Target: CCNB2, cyclin fold, Cln2 fusion (human)
Method: yeast growth competition, sequencing
Matrix: yeast
Notes: weak parent motif
Baseline: not given
Direction: higher = stronger binding
Starting sequence: SCAPER docking peptide (human); SNARRSLNFGGST; partner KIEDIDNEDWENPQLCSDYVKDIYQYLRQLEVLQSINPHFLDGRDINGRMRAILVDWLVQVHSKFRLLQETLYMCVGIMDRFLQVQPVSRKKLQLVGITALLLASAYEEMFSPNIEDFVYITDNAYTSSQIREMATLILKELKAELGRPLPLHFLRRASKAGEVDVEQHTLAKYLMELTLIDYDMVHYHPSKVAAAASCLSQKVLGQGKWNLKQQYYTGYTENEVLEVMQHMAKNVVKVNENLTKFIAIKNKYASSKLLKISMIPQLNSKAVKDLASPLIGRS
Variant	normalised enrichment score
QNARRSLNFGGST [S1Q]	-0.131
SNARRSLNPGGST [F9P]	0.0742
SNARRSLNFGGYT [S12Y]	0.214
SNARRSLNCGGST [F9C]	-0.0902
SNARRQLNFGGST [S6Q]	0.297
SNARRSYNFGGST [L7Y]	0.417
PNARRSLNFGGST [S1P]	0.106
SNARRSLNFGIST [G11I]	0.0407

Other studies, line by line
Rela Rel homology region: Transcription factor p65, Rel homology region (Rela, Mus musculus, UniProt Q04207, residues 1-314)
Chain of UniProt Q04207 (1-314, looked up): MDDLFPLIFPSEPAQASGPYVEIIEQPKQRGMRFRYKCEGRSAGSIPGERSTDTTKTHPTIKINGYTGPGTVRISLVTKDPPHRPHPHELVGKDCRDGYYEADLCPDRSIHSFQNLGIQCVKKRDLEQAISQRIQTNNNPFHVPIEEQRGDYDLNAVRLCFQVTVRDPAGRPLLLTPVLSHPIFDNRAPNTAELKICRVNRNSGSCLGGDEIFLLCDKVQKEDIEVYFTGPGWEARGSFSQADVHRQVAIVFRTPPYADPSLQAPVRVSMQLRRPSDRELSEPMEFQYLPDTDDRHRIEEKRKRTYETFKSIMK
Substance	tested on	assay	test system	setting	how to read	measurement	result
GGGGGGAGTA	Rela Rel homology region	surface plasmon resonance	double-stranded DNA, one strand shown, in vitro	1 nM to 1 µM, 10-bp κB site, 1:1 kinetic fit, 10 °C	higher = slower dissociation	dissociation half-life	4 s
CCCOc1ccc([C@@H]2[C@@H](C(=O)O)[C@H](c3ccc4c(c3)OCO4)CN2CC(=O)Nc2c(CC)cccc2CC)cc1	YES1 (Homo sapiens, UniProt P07947)	cell-free assay, competition with immobilised ligand	–	1 µM	–	remaining binding	90%
AGGAATTCCA	Rela Rel homology region	surface plasmon resonance	double-stranded DNA, one strand shown, in vitro	1 nM to 1 µM, 10-bp κB site, 1:1 kinetic fit, 10 °C	higher = slower dissociation	dissociation half-life	1 s
CCOC(=O)[C@@H]1CSCC(=O)N[C@@H](CC)C(=O)N(C)[C@@H](C)C(=O)N[C@@H](CC(C)C)C(=O)N2CCC[C@@H]2C(=O)N(CC)CC(=O)N[C@@H](CC(C)C)C(=O)N(C)[C@H](C)C(=O)N[C@@H](CC(C)C)C(=O)N1C	–	–	hydrocarbon/water	–	–	logD	0.928

For quick reference, copied from above (sample 2):
Variant	normalised enrichment score
SNARRSLNCGGST [F9C]	-0.0902
SNARRQLNFGGST [S6Q]	0.297
